Assay results pooled from the literature.
Each line is one published result; not all experiments were run side by side. ± marks the error that the study gave. Values after ≈ are worked out from the molar mass of the structure shown.
rep main protease: Replicase polyprotein 1ab, main protease (rep, Severe acute respiratory syndrome coronavirus 2, UniProt P0DTD1)

| Structure (SMILES) | target or system | assay | test system | setting | scale | quantity | result |
| --- | --- | --- | --- | --- | --- | --- | --- |
| O=C1Nc2ccc(Cl)cc2[C@@](C#CC2CC2)(C(F)(F)F)O1 | HIV-1 | viral replication, single-round infection | RT mutant K101E/M184V | – | – | EC50 | 1.5 ± 0.2 nM |
| Cc1cn([C@H]2C[C@H](N=[N+]=[N-])[C@@H](CO)O2)c(=O)[nH]c1=O | HIV-1 | viral replication | human PBMC, subtype F 93BR029, CCR5-tropic clinical isolate | – | – | EC50 | 7.07 ± 3.95 nM |
| CNC(=O)[C@@H](NC(=O)[C@H](CC(C)C)[C@H](O)C(=O)NO)C(C)(C)C | C2C12 | – | – | 10 µM, together with: WB venom | baseline: venom alone | viability difference | 9.03% |
| CCCC(=O)OCSc1ccccc1C(=O)NCCC(N)=O | HIV-1 | viral replication | human PBMC, subtype A 92RW020, CCR5-tropic clinical isolate | – | – | EC50 | 870 ± 880 nM |
| Cc1cc(/C=C/C#N)cc(C)c1-n1cnc2cnc(Nc3ccc4cc(C#N)ccc4c3)nc21 | HIV-1 | viral replication, single-round infection | RT mutant G190S | – | – | EC50 | ≤ 2.1 nM |
| C[C@]1(CO)O[C@@H](n2cnc3c(=O)[nH]c(N)nc32)C[C@@H]1O | HIV-1 K65R | – | MT4 | – | – | IC50 | 189 nM |
| Cc1cc(/C=C/C#N)cc(C)c1-n1cnc2cnc(Nc3ccc(/C=C/C#N)cc3)nc21 | HIV-1 | viral replication, single-round infection | RT mutant Y181I | – | – | EC50 | 3090 ± 221 nM |
| Nc1ccn([C@H]2C[C@H](O)[C@](CO)(CF)O2)c(=O)n1 | HIV-1 T215F | – | MT4 | – | – | IC50 | 24.3 ± 15.5 nM |
| Cn1c(Cn2ccc(C(F)(F)F)c(Oc3cc(Cl)cc(C#N)c3)c2=O)n[nH]c1=O | HIV-1 | viral replication, single-round infection | RT mutant K101E/M184V | – | – | EC50 | 0.2 ± 0.02 nM |
| NC(=O)CCNC(=O)c1ccccc1S | HIV-1 | viral replication | human PBMC, subtype E 93TH051, CCR5-tropic clinical isolate | – | – | EC50 | 5250 ± 2780 nM |
| Cn1cnc(Cn2c(=O)[nH]/c(=N\c3cc4cn(C)nc4cc3Cl)n(Cc3cc(F)c(F)cc3F)c2=O)n1 | – | – | human, severe renal impairment | oral, 375 mg | – | dry mouth TEAE, Mild severity | 0% |
| CC[C@]1(CO)O[C@@H](n2cnc3c(=O)[nH]c(N)nc32)C[C@@H]1O | HIV-1 M184V | MTT | MT4 | – | – | IC50 | > 1000 nM |
| CC[C@H](C)[C@H](N)C(=O)N[C@@H](Cc1c[nH]c2ccccc12)C(=O)N[C@@H](CC(C)C)C(=O)N[C@H](C(=O)N[C@@H](C)C(=O)N[C@@H](CC(C)C)C(=O)N[C@@H](CCCCN)C(=O)N[C@@H](Cc1ccccc1)C(=O)N[C@@H](CC(C)C)C(=O)NCC(=O)N[C@@H](CCCCN)C(=O)N[C@@H](Cc1c[nH]cn1)C(=O)N[C@@H](C)C(=O)N[C@@H](C)C(=O)N[C@@H](CCCCN)C(=O)N[C@@H](Cc1c[nH]cn1)C(=O)N[C@@H](CC(C)C)C(=O)N[C@@H](C)C(=O)N[C@@H](CCCCN)C(=O)N[C@@H](CCC(N)=O)C(=O)N[C@@H](CCC(N)=O)C(=O)N[C@@H](CC(C)C)C(=O)N[C@@H](CO)C(=O)N[C@@H](CCCCN)C(=O)N[C@@H](CC(C)C)C(=O)O)[C@@H](C)O | Bacillus subtilis | broth microdilution | 168 | – | – | MIC | 6.25 µM (≈ 17.8 µg/mL) |
| CC(C)OC(=O)OCOP(=O)(CO[C@H](C)Cn1cnc2c(N)ncnc21)OCOC(=O)OC(C)C | HIV-1 K65R | – | MT4 | – | – | IC50 | 2250 nM |
| COC[C@H](NC(=O)c1cnc(C)s1)C(=O)N[C@@H](COC)C(=O)N[C@@H](Cc1ccccc1)C(=O)[C@@]1(C)CO1 | rep main protease | reporter gene (mKate2), inhibitor | – | 20 µM | – | inhibition | -1.11% |
| CC[C@H](C)[C@H](NC(=O)[C@H](CC(C)C)NC(=O)[C@H](Cc1c[nH]c2ccccc12)NC(=O)[C@H](CCC(N)=O)NC(=O)[C@@H](NC(=O)[C@H](Cc1ccccc1)NC(=O)[C@H](C)NC(=O)[C@H](CCCCNC(=O)COCCOCCNC(=O)COCCOCCNC(=O)CC[C@H](NC(=O)CCCCCCCCCCCCCCCCCCC(=O)O)C(=O)O)NC(=O)[C@H](CCC(N)=O)NC(=O)[C@H](C)NC(=O)[C@@H](NC(=O)[C@H](CCCCN)NC(=O)[C@H](CC(=O)O)NC(=O)[C@H](CC(C)C)NC(=O)C(C)(C)NC(=O)[C@@H](NC(=O)[C@H](CO)NC(=O)[C@H](Cc1ccc(O)cc1)NC(=O)[C@H](CC(=O)O)NC(=O)[C@H](CO)NC(=O)[C@@H](NC(=O)[C@H](Cc1ccccc1)NC(=O)[C@@H](NC(=O)CNC(=O)[C@H](CCC(=O)O)NC(=O)C(C)(C)NC(=O)[C@@H](N)Cc1ccc(O)cc1)[C@@H](C)O)[C@@H](C)O)[C@@H](C)CC)[C@@H](C)CC)C(C)C)C(=O)N[C@@H](C)C(=O)NCC(=O)NCC(=O)N1CCC[C@H]1C(=O)N[C@@H](CO)C(=O)N[C@@H](CO)C(=O)NCC(=O)N[C@@H](C)C(=O)N1CCC[C@H]1C(=O)N1CCC[C@H]1C(=O)N1CCC[C@H]1C(=O)N[C@@H](CO)C(N)=O | – | – | healthy subjects, single ascending dose | 0.5 mg, day 29 | – | serum lipase | 26.3 ± 8 U/L |
| Nc1ncnc2c([C@@H]3N[C@H](CO)[C@@H](O)[C@H]3O)c[nH]c12 | Marburg marburgvirus | viral RNA in supernatant | HeLa, Musoke | 0.8 µM, 12 h | – | inhibition | 7.6% |
| Nc1nc(F)nc2c1ncn2[C@H]1C[C@H](O)[C@](CO)(CF)O1 | HIV-1 K65R | MTT | MT4 | – | – | IC50 | 110 ± 7 nM |
| Cc1cc(/C=C/C#N)cc(C)c1Nc1nc(Nc2ccc(/C=C/C#N)cc2)ncc1N | HIV-1 | viral replication, single-round infection | RT mutant E138K/M184V | – | – | EC50 | 6.8 ± 0.2 nM |
| N#CC(C#N)=NNc1cccc(Cl)c1 | Escherichia coli | – | tetracycline-resistant (pBR322) | – | – | MIC | 56 µM (≈ 11.5 µg/mL) |
| CNc1nc(N)ncc1-c1cn([C@@H]2O[C@H](CO[P@@](=O)(N[C@@H](C)C(=O)OC(C)C)Oc3ccccc3)[C@@H](O)[C@@]2(C)F)cn1 | human cytomegalovirus | – | – | concentration not given | – | antiviral activity | inactive |
| COc1ccc2c(c1O)-c1c(OC)c(OC)cc3c1[C@H](C2)N(C)CC3.Cl | rep main protease | reporter gene (mKate2), inhibitor | – | 20 µM | – | inhibition | -0.431% |

A few entries again:
| Structure (SMILES) | target or system | assay | test system | setting | scale | quantity | result |
| --- | --- | --- | --- | --- | --- | --- | --- |
| Cc1cn([C@H]2C[C@H](N=[N+]=[N-])[C@@H](CO)O2)c(=O)[nH]c1=O | HIV-1 | viral replication | human PBMC, subtype F 93BR029, CCR5-tropic clinical isolate | – | – | EC50 | 7.07 ± 3.95 nM |
| CNC(=O)[C@@H](NC(=O)[C@H](CC(C)C)[C@H](O)C(=O)NO)C(C)(C)C | C2C12 | – | – | 10 µM, together with: WB venom | baseline: venom alone | viability difference | 9.03% |
| CCCC(=O)OCSc1ccccc1C(=O)NCCC(N)=O | HIV-1 | viral replication | human PBMC, subtype A 92RW020, CCR5-tropic clinical isolate | – | – | EC50 | 870 ± 880 nM |
